Measured values gathered from unrelated publications.
Numbered parts are unrelated; each lists some results of a single study.

Block 1 — method: protein binding microarray; molecule type: double-stranded DNA, one strand shown; matrix: in vitro; tested at: not given; reference: not given; direction: higher = stronger binding; endpoint: E-score
Target: Histone acetyltransferase KAT6A, winged helix 2, GST fusion (KAT6A, Homo sapiens, UniProt Q92794, residues 85-181)
Notes: 8-mer, flanks averaged, mean of 2 arrays, mostly near background
Target sequence (chain): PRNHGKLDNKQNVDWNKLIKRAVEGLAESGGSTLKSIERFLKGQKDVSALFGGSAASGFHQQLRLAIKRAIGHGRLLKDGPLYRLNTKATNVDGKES
Oligonucleotide = GCGGTGCC; result = 0.236
Oligonucleotide = CGTACTGC; result = 0.0689
Oligonucleotide = AATCTTGT; result = 0.0662
Oligonucleotide = CGGTCTGA; result = 0.0914
Oligonucleotide = GACCAAGC; result = -0.00891
Oligonucleotide = CATTGTCG; result = 0.0028
Oligonucleotide = CACTAGGC; result = -0.0742
Oligonucleotide = CCGCAGGC; result = 0.256
Oligonucleotide = AGGATACA; result = 0.0171
Oligonucleotide = CCGGCTAC; result = 0.101
Oligonucleotide = CCCGAGGA; result = 0.0582
Oligonucleotide = AGACCAGG; result = -0.0626
Oligonucleotide = AATCCATT; result = -0.0443
Oligonucleotide = AAGAGACT; result = -0.188
Oligonucleotide = ATATAAGG; result = -0.00171
Oligonucleotide = ACTCCGGG; result = 0.0956
Oligonucleotide = AAGCGACT; result = -0.012
Oligonucleotide = GAGTTAGC; result = -0.0917
Oligonucleotide = ATTACGGC; result = 0.0495
Oligonucleotide = GAAAACAC; result = -0.127
Oligonucleotide = TAGGCGGA; result = 0.0902
Oligonucleotide = TCAGTGGA; result = 0.00115
Oligonucleotide = TCGAGCCA; result = 0.0315
Oligonucleotide = CCGGCCGC; result = 0.289
Oligonucleotide = CACACACA; result = -0.0341

Block 2 — method: protein-binding microarray; molecule type: double-stranded DNA, one strand shown; matrix: in vitro; tested at: not given; direction: higher = stronger binding; endpoint: E-score
Target: Protein max, full length (MAX, Homo sapiens, UniProt P61244-2, residues 1-151)
Notes: k-mer, scored over probes, only values ≥0.25
Oligonucleotide = ACGCGGCG; result = 0.363
Oligonucleotide = ATGGTGTG; result = 0.253
Oligonucleotide = GCACGCAA; result = 0.277
Oligonucleotide = CGCATGAG; result = 0.342
Oligonucleotide = GGCATGAC; result = 0.315
Oligonucleotide = CCACGGGC; result = 0.255
Oligonucleotide = ATGCACCC; result = 0.255
Oligonucleotide = GCGTGTCC; result = 0.397
Oligonucleotide = GATCGCAC; result = 0.272
Oligonucleotide = CGTGTATA; result = 0.277
Oligonucleotide = CGGGACAC; result = 0.292
Oligonucleotide = ACATGTAG; result = 0.309
Oligonucleotide = AGCAGCAT; result = 0.27
Oligonucleotide = ATAACCAC; result = 0.292
Oligonucleotide = ATGCGGAG; result = 0.259
Oligonucleotide = ATGCGGCG; result = 0.301
Oligonucleotide = CAGGTGTA; result = 0.352
Oligonucleotide = ACCATGCA; result = 0.366
Oligonucleotide = ATGTGCTG; result = 0.35
Oligonucleotide = GTGCTGCA; result = 0.294
Oligonucleotide = CGCGGTCA; result = 0.276
Oligonucleotide = ATCATGAG; result = 0.253

Block 3 — method: universal PBM; molecule type: double-stranded DNA, one strand shown; matrix: in vitro; tested at: not given; direction: higher = stronger binding; endpoint: E-score
Target: Sal-like protein 4, full length isoform B (SALL4, Homo sapiens, UniProt Q9UJQ4-2, residues 1-616)
Notes: 8-mer, flanks averaged, mean of replicates
Construct (chain): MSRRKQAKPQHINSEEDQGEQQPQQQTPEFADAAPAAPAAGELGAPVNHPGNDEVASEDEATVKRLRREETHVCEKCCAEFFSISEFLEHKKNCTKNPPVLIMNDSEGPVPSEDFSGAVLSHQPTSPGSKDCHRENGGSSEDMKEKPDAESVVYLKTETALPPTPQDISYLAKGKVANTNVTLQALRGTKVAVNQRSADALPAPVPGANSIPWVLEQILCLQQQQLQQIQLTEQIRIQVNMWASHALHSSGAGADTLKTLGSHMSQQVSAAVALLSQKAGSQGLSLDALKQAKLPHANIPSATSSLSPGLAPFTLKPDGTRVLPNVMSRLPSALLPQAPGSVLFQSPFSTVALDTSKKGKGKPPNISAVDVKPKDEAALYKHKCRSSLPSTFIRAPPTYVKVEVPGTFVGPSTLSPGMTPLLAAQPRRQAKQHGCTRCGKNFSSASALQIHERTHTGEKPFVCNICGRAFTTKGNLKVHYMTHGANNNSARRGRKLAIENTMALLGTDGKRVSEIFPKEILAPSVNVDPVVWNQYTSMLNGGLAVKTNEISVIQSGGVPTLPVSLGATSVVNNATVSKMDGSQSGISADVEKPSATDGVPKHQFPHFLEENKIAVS
Oligonucleotide = CCGCATCA; result = -0.155
Oligonucleotide = CGCGCATC; result = -0.064
Oligonucleotide = AGTCATCC; result = -0.138
Oligonucleotide = AGATTTTA; result = 0.272
Oligonucleotide = CAATTTAC; result = 0.154
Oligonucleotide = CGAGTTCC; result = -0.139
Oligonucleotide = CGACCCGC; result = -0.273
Oligonucleotide = CCCCTGAG; result = -0.29
Oligonucleotide = GAATGTCA; result = -0.0447
Oligonucleotide = CGTCAAAA; result = 0.0993
Oligonucleotide = CTGTTCTC; result = -0.175
Oligonucleotide = AAGCAGAC; result = -0.181
Oligonucleotide = TTAGAAAA; result = 0.232
Oligonucleotide = ATTCGGGC; result = -0.195
Oligonucleotide = GGCACCAA; result = -0.0423
Oligonucleotide = CTGAGTGC; result = -0.248
Oligonucleotide = CGTTGAAC; result = -0.109
Oligonucleotide = GATACCAA; result = 0.151
Oligonucleotide = GAAGCACC; result = -0.21
Oligonucleotide = ACTATAAG; result = 0.284
Oligonucleotide = ACAATTGG; result = -0.0668
Oligonucleotide = AAACATCC; result = -0.0538
Oligonucleotide = CCCTACCA; result = -0.17
Oligonucleotide = GACAGTCC; result = -0.168
Oligonucleotide = CTTTTTGA; result = 0.0956

Block 4 — method: protein-binding microarray; molecule type: double-stranded DNA, one strand shown; matrix: in vitro; tested at: 2540 nM top; notes: 60-bp whole probe; with: salmon DNA 0.4 mg/ml; reference: random background probes; direction: higher = stronger binding; endpoint: fitted relative affinity; constant ends, left off below: GCCTAGCAC … GTCTTGATTCGCTTGACGCTGCTG
Target: Interferon regulatory factor 3, full length, phosphomimetic (IRF3, Homo sapiens, UniProt Q14653, residues 1-427, S386D/S396D/S398D/S402D/T404D/S405D)
Residues (chain): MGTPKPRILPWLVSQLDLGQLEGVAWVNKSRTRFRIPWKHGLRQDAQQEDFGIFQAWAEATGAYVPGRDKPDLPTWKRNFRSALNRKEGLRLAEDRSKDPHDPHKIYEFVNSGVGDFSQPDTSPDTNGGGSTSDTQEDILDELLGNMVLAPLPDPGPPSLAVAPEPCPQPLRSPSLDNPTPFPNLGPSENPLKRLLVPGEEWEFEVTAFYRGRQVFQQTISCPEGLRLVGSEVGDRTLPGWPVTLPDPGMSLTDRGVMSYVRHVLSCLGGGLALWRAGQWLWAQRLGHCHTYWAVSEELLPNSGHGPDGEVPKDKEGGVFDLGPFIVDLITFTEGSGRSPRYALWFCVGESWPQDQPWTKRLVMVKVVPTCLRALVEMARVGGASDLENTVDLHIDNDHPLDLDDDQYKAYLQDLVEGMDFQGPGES
Oligonucleotide = TTAGGTGTCGGTTCCGGTTAGTGCTAG; result = 4.69 z-score
Oligonucleotide = TCAATTTTGTGTCTGGGACTGTGCTAG; result = 0.0255 z-score
Oligonucleotide = TCAACTCCCTCTCTGGCACTGTGCTAG; result = 0.499 z-score
Oligonucleotide = TTAGGACTGCTTTTCATTTAGTGCTAG; result = 0.873 z-score
Oligonucleotide = TTAGGACTGCTGCTCCTTTAGTGCTAG; result = -0.442 z-score
Oligonucleotide = TTAGGACTGGACTTTCGATTAGTGCTA; result = 0.364 z-score
Oligonucleotide = ATAGAACTGAGTTTCGATTAGTGCTAG; result = 2.75 z-score
Oligonucleotide = TTAGATTTCAGTCTCGATTGGTGCTAG; result = 2.18 z-score
Oligonucleotide = TTTCTTTTCATTACTGCATTGTGCTAG; result = 4.7 z-score
Oligonucleotide = TTAGGACTGCTTCTCCGTTAGTGCTAG; result = -0.246 z-score
Oligonucleotide = TCACTTATTGCTTCCTCACTGTGCTAG; result = 0.442 z-score
Oligonucleotide = GACGGACTGAGACTGGGGACGTGCTAG; result = -0.617 z-score
Oligonucleotide = ACTCTAATCTCACTCTGTCCGTGCTAG; result = 0.631 z-score
Oligonucleotide = TTAGAAGTGGGGTTTCGATTAGTGCTA; result = 1.48 z-score
Oligonucleotide = TCATACATGGGTTTTCAGACTGTGCTA; result = 0.152 z-score
Oligonucleotide = GACGGTCTCCTTCTCCTGACGTGCTAG; result = 4.33 z-score
Oligonucleotide = TTAGATTTCGGTTATCGATTAGTGCTA; result = 4.64 z-score
Oligonucleotide = TTAGGTATCGACACTGGGTTAGTGCTA; result = 0.143 z-score

Block 5 — method: RNA Bind-n-Seq; molecule type: RNA; matrix: in vitro; tested at: 365 nM; reference: no-protein control; direction: higher = stronger binding; endpoint: RBNS enrichment (R)
Target: RNA binding protein fox-1 homolog 2, RRM domain, GST-SBP tag (RBFOX2, Homo sapiens, UniProt O43251-10, residues 100-194)
Notes: natural RNA segment, single round, ends assumed
Construct (chain): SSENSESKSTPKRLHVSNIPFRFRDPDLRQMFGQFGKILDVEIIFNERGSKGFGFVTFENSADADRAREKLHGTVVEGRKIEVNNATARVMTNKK
Oligonucleotide = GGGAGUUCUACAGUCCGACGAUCAGGGACUUACGCAUUUGGCCAAUGUCAAAAGAACAGAACUUUGCCCACUGCACACUUGCUGUGUACAAUGACUGAGCCCUUUCUUGUAGUUUGUUUCCUUGUUUGAGAGGUGGAAUUCUCGGGUGCCAA; result = 0.398
Oligonucleotide = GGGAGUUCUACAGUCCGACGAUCAUUAUUUUAAUACAGGAAAAGAAAAGAUUUAGUAAUUUCUUACCAUGCUAAUAUGUAAAGUUCAUGCCAUCCAGGCAUUUAAGAGCGAUCCUCAUCCCUUCAGCAAUAUGUGGAAUUCUCGGGUGCCAA; result = 0.383
Oligonucleotide = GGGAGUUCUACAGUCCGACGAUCUAUUUUACUAGUCCAAUCACCCCCAGGACCUCUUCAGCUGCUGACAAUCCUAUUUAGCAUAUGCAAAUCUUUUAACAUAGAGAACUGUCACCCUGAGGUAACAGGGUCAAUGGAAUUCUCGGGUGCCAA; result = 0.434
Oligonucleotide = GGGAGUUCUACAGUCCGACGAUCAAAAGAAUAUUAAAUGCCUUUGGAAACAUGAAACAAAGUUAGGAGCCAGUAAGAAAGUGACAGAAGCAAUGAAUGUCUUAAUGCAGUAUAGUUAAAAUGGCUUCCCACAGUGGAAUUCUCGGGUGCCAA; result = 1.49
Oligonucleotide = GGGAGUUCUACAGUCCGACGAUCGAGAGAGGGACUGUCACUUUCCCAGACAGAAACGGCCUUUUCAGGAACCAGCAGCCGCUAGGCCAAUCCCUGGUGGUCGGUCUCCAUCCCGAUUCCUGCCUGCCCGCUUUUGGAAUUCUCGGGUGCCAA; result = 0.277
Oligonucleotide = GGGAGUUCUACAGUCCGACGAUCAUGGCUGAUCUCUCCUCAAAGAGGUGAGUAGAAAAGAGAUUCUUGUUUAAAAGAGUCUAGCAAGAAGCAGUAGCUUGUCUGCUAAGAGUACAAAAAUUAUAUGACAAAUUUGGAAUUCUCGGGUGCCAA; result = 0.825
Oligonucleotide = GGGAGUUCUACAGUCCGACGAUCGUCCCAACAGGAGUCAGGAAGAGGUUUGAUUAUAACCAAGAAAACUCACUAUGCUAGGAAUAGACUGUGUGCACCAGUCCCAGACACUUGGCAGAAGUGUAGCAGCGUUAUGGAAUUCUCGGGUGCCAA; result = 0.537
Oligonucleotide = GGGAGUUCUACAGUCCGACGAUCUUCCCAUUUCCUGUGGUCCUUUUUUUGUCAUCCCUUGAAGGUGCCCUUGAAAUCCUAAUCUAAGACACUGCUUGAGUCCAAGGCAACCCUCAAUGAGACUAAGACUUGUGUGGAAUUCUCGGGUGCCAA; result = 0.907
Oligonucleotide = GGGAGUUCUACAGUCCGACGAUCCUGAUAUGCCACAUAGGAUGCUCCAAAGCCCCAAGACAUUGGAGUUUGGCUCAAGAGCCUUUAUUUGGCCUGUUUGCCUUAAUUCUAUUACAUAGCAUACCUGUAUUUCAUGGAAUUCUCGGGUGCCAA; result = 0.851
Oligonucleotide = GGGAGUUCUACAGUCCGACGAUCAGCGCCACGGACCUCUCUGGGGAGUGGCCGGAAAGCUCCCGGGCCUCUGGCCUGCAGGGCAGCCCAAGUCAUGACUCAGACCAGGUCCCACACUGAGCUGCCCACACUCGUGGAAUUCUCGGGUGCCAA; result = 0.19
Oligonucleotide = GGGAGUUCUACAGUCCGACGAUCAGCGGGGCAGCCCAGGAGGUCUCAUACCCCACCCGUAAUCUGUACAGACUGAGAGGCCAGUUGAUCUGCUCUGUUUUAUACCAGUAGCAAUAAAGAUUAUUUUUUGAUACUGGAAUUCUCGGGUGCCAA; result = 0.495
Oligonucleotide = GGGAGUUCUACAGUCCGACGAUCAGAGGCCACCUAGUCACUGGUCCACAUAACCCUUGACCCCUUCUUCUUCAUAGAGGAAACAAUGUGCCAGUCUUAUUCUUUUCUUCAACAACCUUGACUUCCAUGGAGGAUGGAAUUCUCGGGUGCCAA; result = 0.495
